Experimental data collected from several papers.
Numbered parts are unrelated; each lists some results of a single study.

Series 1
Target: RNA binding protein fox-1 homolog 2, RRM domain, GST-SBP tag (RBFOX2, Homo sapiens, UniProt O43251-10, residues 100-194)
Technique: RNA Bind-n-Seq
Molecule type: RNA
Medium: in vitro
Concentration: 365 nM
Notes: natural RNA segment, single round, ends assumed
Relative to: no-protein control
Direction: higher = stronger binding
Constant ends, left off below: GGGAGUUCUACAGUCCGACGAUC … UGGAAUUCUCGGGUGCCAA
Construct (chain): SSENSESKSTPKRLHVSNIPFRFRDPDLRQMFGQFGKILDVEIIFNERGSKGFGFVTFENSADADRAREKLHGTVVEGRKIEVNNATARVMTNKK
Strand	RBNS enrichment (R)
UUGAGGGACCCAGACCAGGUGUCUGCAGUCAGCUCCUGAGACACAGCUGGCCGGCACAACAGGUGUUACAUCAGGGGUUUCCUGUGGCCGUUUGAACUUUGAGCAUUUAU	1.85
UAUUGAAGAAAAACAAAUUAUCUAUUUUGUUUUCCCCCAUCUAACAUGAUAGUGCCCCCAACCAGGUUGUAGCAUUGCCUUUUAAAAGAGACUCACUCACUCUUAGUUUU	0.701
UCGAGAAUGAAGACUGCAGUCAGGAUCAAAUCAAGUCACAGAAGCCAUAUUCAUGCAGGUGCUAACCGCCUUUUCUACUGGUGCAACUGAAAGGAAUAUGGUAACAUGGU	0.66
CACAUGUUCUUUCUUUUCCUGAGUGAAAAGCAAAGGUCCCACGGUGUGUGCUGUGGUGCACCGCCUGGCUUUGGGGGUCCCGGAGGCAGGCUGCCUAGACUCACAGCCUC	0.203
GCUGUAAACCUGUUUUUUAAAACUAUUUUAGAAACCUGAGACUUGCCGUCUGGCAUUUUAGUUUAAUACAAACUAAUGAUUGCAUUUGAAAGAGAUUCUUGACCUUAUUU	1.01
CCAUUGGAAUUGAGGGUAUGUACAGAGAAGUUGGUGUCAAUGCCAUUUAAUAAGUCAUAUUUUUUCACAAAUAAGGAAAAAUCAUUUUAAUGAGAAUUUUAAGUAUUUGC	0.362
UCUGUUCACAGUUUCUGUGUCUUUGGGUUCCUCCUUUUUCCAAGAGAAAAGGAUGUGACUGCCCAUCCUAGGUAUACUGGCUGUCUCCCUCAGUGGAGAAGAUGAGAAGA	0.239
GGGCAGGGCUGGGACAGGCUGGCAGGUGGACACUGCCUGCAGGGUCUUCCCUGAUCCCACCAUCCUACCUACGCCCCCCCUCCCCUCAGCCCUAGUCUCCUCCAUUGACA	1.01
GGAUUGAUGACCAGGGCCCUUCCUUUCCUCUCCAGGGUCUCAAGUUGCCCCUGUCACUGGGGGAACAGGGGCCUGGCUGUAACCGCCCCUGUCCUUUUCCCCUGGCCAGC	0.356
UGUGCAAAAGGUGGGAGACAGAGCUGGACCUGCAGGGGUGGUCCCGCCACAACCCUGCGUGUGGACCCUGGCAGGGGGGGGUGCCAGGCCCCUGGAAAGCAGGGGUUACC	0.622
UAGGCCUGGCUUUCUCAACUGCCUGAGGCUGUUGCGCAGCAUUGCUGCCUCAUGUGACUGCCGUGCCUGUGAAUACGCAGAACCAGGACUCCACCCCACCGUGGAAAGGG	0.677
AUCGGACCAAAUAUAUUGAGACUUAGUUUUGAAUGGAGUCAUGUUCCUCUAAGGUGGUUCGAUGUGAGGCGACCUGAAGCUCAGCCCUCGGGAAGCUUCUUGUGUCUGGA	0.61

Series 2
Target: Histone acetyltransferase KAT6A, both winged helices, GST fusion (KAT6A, Homo sapiens, UniProt Q92794, residues 1-181)
Technique: protein binding microarray
Molecule type: double-stranded DNA, one strand shown
Medium: in vitro
Concentration: not given
Notes: 8-mer, flanks averaged, mean of 2 arrays, mostly near background
Relative to: not given
Direction: higher = stronger binding
Residues (chain): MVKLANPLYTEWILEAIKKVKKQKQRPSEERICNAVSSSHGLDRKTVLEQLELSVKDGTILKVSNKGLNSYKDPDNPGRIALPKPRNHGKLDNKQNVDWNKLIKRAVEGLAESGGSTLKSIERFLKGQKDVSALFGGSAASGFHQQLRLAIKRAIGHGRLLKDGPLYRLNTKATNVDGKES
Strand	E-score
CACGCCGC	0.306
GTCCAAAA	0.0125
GAACGAGC	-0.0284
CACTCGCG	0.24
GGCCGTAC	0.255
CCATGGGG	-0.132
AGTTCGTC	0.0774
CAAGCTAA	-0.243
ACGCCGAG	0.196
CACGCTCC	0.0739
ATTTGCAG	-0.189
CAAGGTGC	-0.0339
AAGCAACC	0.11
AAACAATT	0.0362
TAGGATCA	-0.178
ACTCCGTG	0.149
GGCCAACA	-0.0683
TGCGTGAA	0.159
ACAAAGAA	-0.112
CATACAGA	-0.0515
GATGGGAA	-0.132
AATCAAGA	-0.0402
CTAGGAAG	-0.118
GTTTCATA	0.0206

Series 3
Target: Interferon regulatory factor 5, full length, phosphomimetic (IRF5, Homo sapiens, UniProt Q13568-2, residues 1-514, K96S/S451D/S453D/S456D/S462D)
Technique: protein-binding microarray
Molecule type: double-stranded DNA, one strand shown
Medium: in vitro
Concentration: 250 nM
Notes: 60-bp whole probe
With: salmon DNA 0.4 mg/ml
Relative to: random background probes
Direction: higher = stronger binding
Constant ends, left off below: GCCTAGCAC … GTCTTGATTCGCTTGACGCTGCTG
Strand	log fluorescence [z-score]
TCACTTATTAAGATTGTGACTGTGCTA	0.598
TCATAAAATGGACACTGTACTGTGCTA	0.635
TGAGATATCGGGACTGGATTAGTGCTA	0.72
TTAGAACTGGGGCATCGATTAGTGCTA	0.0596
AACGGTTTCGACACTGGGGACGTGCTA	5.11
TTAGAATTGGGGACTGGATTAGTGCTA	-0.125
GTCAGTTTTGAGCTCTGTCTGTGCTAG	0.146
TCACACATTTTTTTCATACTGTGCTAG	1.14
TTAGGTCTGGACTATCGGTTAGTGCTA	5.18
TTCATTTTGTTCATCATTGCGTGCTAG	1.16
TTAGATTTCAGACTGCATTAGTGCTAG	0.58
CCCATTCTGAATTCGAATGCGTGCTAG	0.0872
TTAGAACTGGGGTTACGATTAGTGCTA	-0.266
GACGGTCTCGGTTTCGGTACGTGCTAG	7.21
TTCCCTCCCTAATTCTGATTGTGCTAG	0.321
ATTGTTTCCTCTTTCACTGCGTGCTAG	3.19
TTAGGTATCCCACTGCTTTAGTGCTAG	0.135
TTCGGTATCGGACTGGGTTAGTGCTAG	2.44
TTTGGTCTCCTTCTCCTTTAGTGCTAG	0.396
TAAGGACTGCTTATCCTTTAGTGCTAG	-0.128
GACGGACCGGGGTATCGGGACGTGCTA	-0.172
TCACTCTTCTTTTTTTTACTGTGCTAG	1.38
GACGGTTCCCTTTTCCTGAAGTGCTAG	0.291
TTAGGTCTCCATATCCTTTAGTGCTAG	-0.131
GACGGTTTCGGGACTTGGGACGTGCTA	4.21

Series 4
Target: Ras GTPase-activating protein-binding protein 1, RRM domain (G3BP1, Homo sapiens, UniProt Q13283)
Chain of UniProt Q13283 (whole entry, looked up): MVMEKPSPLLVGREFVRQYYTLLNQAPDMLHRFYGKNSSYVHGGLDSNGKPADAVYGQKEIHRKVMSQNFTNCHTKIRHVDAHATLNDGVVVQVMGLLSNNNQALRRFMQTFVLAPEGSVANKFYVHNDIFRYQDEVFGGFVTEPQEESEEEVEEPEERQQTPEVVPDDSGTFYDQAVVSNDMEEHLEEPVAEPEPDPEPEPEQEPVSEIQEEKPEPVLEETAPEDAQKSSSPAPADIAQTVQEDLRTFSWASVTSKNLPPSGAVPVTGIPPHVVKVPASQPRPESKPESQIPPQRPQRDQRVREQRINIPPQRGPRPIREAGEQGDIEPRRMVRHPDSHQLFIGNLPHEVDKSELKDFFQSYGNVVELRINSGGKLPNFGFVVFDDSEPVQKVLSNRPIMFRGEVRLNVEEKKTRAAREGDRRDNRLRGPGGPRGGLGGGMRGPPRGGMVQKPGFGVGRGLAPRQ
Technique: RNA Bind-n-Seq
Molecule type: RNA
Medium: in vitro
Concentration: 1 µM
Notes: whole 134-nt RNA, ends assumed
With: 150 mM KCl
Relative to: input library
Direction: higher = stronger binding
Constant ends, left off below: GGGAGUUCUACAGUCCGACGAUC … UGGAAUUCUCGGGUGUCAAGG
Strand	log2 enrichment
CCUCAAGUCCUGUGCUACACAUCGUAUGUACCGAAUCGGUGGAAAAAGGUGGAAAGUAUUAUGUUACGCCGUUCGGAUCUGCACUUCCAG	-0.234
GCAGGAAGUAAAAACAAAUGGAAAUGCUUCGGAUAGUGGCAGGGGUGGGGGUUGCUAAGGAAAGGGUGGGAUUGGAGUGGGUAAAGAGUU	0.799
UGCAUCUGCACUGGAGAAAUGGAAGACAGCAAUCCGGGAAGCUCAGACUUUCUCCAGGAUGCACGUGCUGCUUGGGAUGCUUGAUGCCUG	-0.0552
CCUGUGCUACACAUCGUAUGUACCGAAUCGGGCCCCCCCGGCCCCCCCGGCCCCCCCGGGGAAAGUAUUAUGUUACGCCGUUCGGAUCUG	-0.653
UUAGAUGAGUGACCGAGGAGGUGGCGUUCCUUUGAGGAAAAUUGACAGACUUUUCAACUACAUGUAUUCAACUGCACCAAGACCUCGUGU	-0.146
UCCUGUGCUACACAUCGUAUGUACCGAAUCGGGGCCCCCCGGGCCCCCCGGCCCCCCGGGAAAGUAUUAUGUUACGCCGUUCGGAUCUGC	-0.3
UGGAGGAGCCAUAGAAUAUUAAGGAUGAAUUCAGGAAGGCCUGAGACCAUGGAAAACUUGCCUGCUCUCUACACUAUUUUCCAAGGAGAG	-0.282
CUGUGCUACACAUCGUAUGUACCGAAUCGGGGCCCCCCCGGGCCCCCCCGGGGCCCCCCCGGAAAGUAUUAUGUUACGCCGUUCGGAUCU	-0.643
CCUCAAGUCCUGUGCUACACAUCGUAUGUACCGAAUCGGGCCGGGCCGGCCGGAAAGUAUUAUGUUACGCCGUUCGGAUCUGCACUUCCA	-0.357
CACAGACAACACGCACCCACACAGACACAGAGGGAAGGGGUUGGAAAGGGGACAGGGUGCACAGCAGGGCGGGGUAGGACCCCAGCCCCU	0.0308
GCAGGAAGUAAAAACAAAUGGAAAUGCUUCGGAUAGUGGCAGGGGUGGGGGUUGCUAAGGAAAGGGUGGGCUGGGAGUGGGUAAAGAGUU	1.19
CUGUGCUACACAUCGUAUGUACCGAAUCGGUUUUUUUGGGUUUUUUUGGGUUUUUUUGGGGAAAGUAUUAUGUUACGCCGUUCGGAUCUG	-0.226
CUGUGCUACACAUCGUAUGUACCGAAUCGGAAAAAAAGGGGAAAAAAAGGAAAAAAAGGGGAAAGUAUUAUGUUACGCCGUUCGGAUCUG	0.1
UGUGCUACACAUCGUAUGUACCGAAUCGGGGAAAAAAAGGGGUUUUUUUGGGGUUUUUGGGGAAAGUAUUAUGUUACGCCGUUCGGAUCU	1.12
